Results of several laboratories.
± gives the spread as reported.

Cc1cc(-c2ccccc2)c2ccc3c(-c4ccccc4)cc(C)nc3c2n1.[Cl-].[Cl-].[Ru+2].c1ccc(-c2ccccn2)nc1.c1ccc(-c2ccccn2)nc1 — half-life (water; blue light 100 mW/cm^2 460 nm): ~0.0333 h
CCNCC#CCNc1ccnc2cc(Cl)ccc12 — half-life (plasma; 2 µM, pH 7.4, 37 °C): 2.64 h
NCCC(=O)N[C@@H](Cc1c[nH]c2ccc(O)cc12)C(=O)N[C@@H](Cc1ccc(Cl)cc1)C(=O)N[C@@H](Cc1ccncc1)C(N)=O — half-life (EphA4-ephrin-A5 ELISA; mouse serum; 37 °C): ~12 h
CCC(C)C(N)C(=O)OC(C)OC(=O)C1=CC(N=C(N)N)C(NC(C)=O)C(C(O)C(O)CO)O1 (mixture of isomers) — half-life (phosphate buffer; pH 7.4, 37 °C, chemical hydrolysis): 0.8 ± 0.188 h
CC[C@H](C)[C@H](NC(=O)[C@@H](N)[C@@H](C)O)C(=O)N[C@@H](CCCCN)C(=O)N[C@H](C(=O)N1CCC[C@H]1C(=O)N[C@@H](C)C(=O)NCC(=O)N[C@H](C(=O)O)[C@@H](C)O)[C@@H](C)CC — half-life (human plasma; 0.1 mg/mL, 37 °C): 0.281 ± 0.00667 h
C[C@H](NC(=O)COC(=O)[C@H](C)NC(=O)CO)C(=O)O — half-life (water; pH 2, 50 °C): 76.8 h
O=C(O)c1cccc(CN2CCOCCOCCN(Cc3cccc(C(=O)O)n3)CCOc3ccccc3OCC2)n1 — half-life (isothiocyanate hydrolysis; NaHCO3 buffer; pH 9.1, room temperature): 56 h
CCC(CC)O[C@@H]1C=C(C(=O)OC(OC(=O)[C@@H](N)C(C)C)C(C)C)C[C@H](NC(=N)N)[C@H]1NC(C)=O (single isomer, unassigned) — half-life (acetate buffer; pH 5.5, 37 °C): stable
[2H]C1([2H])CC[C@@H](C[C@@H](C#N)NC(=O)[C@@H]2[C@@H]3[C@H](CN2C(=O)[C@@H](NC(=O)C(F)(F)F)C(C)(C)C)C3(C)C)C(=O)N1 — half-life (mouse liver microsomes; microsomes 0.5 mg/mL): 0.17 h
CO[C@@H](C[C@H]1C(C)=CC[C@@H]2[C@]3(C)C[C@H](O[C@@H]4O[C@@H](C)[C@H](O)[C@@H](O)[C@H]4O)[C@@H](O)C(C)(C)[C@H]3CC[C@]21C)[C@H](N)C(=O)O — half-life (simulated gastric fluid with pepsin; 1 µM, pH 1.2, 37 °C): > 8 h
CC(C)(C)c1nc(-c2ccc(NC(=O)c3cccs3)cc2Cl)no1 — half-life (chemical stability; buffer; 5 µM, pH 10.0, 37 °C): 0.572 ± 0.122 h
CCCN1C(=O)CCc2cc(NS(=O)(=O)Cc3ccc(C)cc3)ccc21 — half-life (LC-MS; water under UV light 8 W; 100 µM): 2.9 h
Cc1nc(-c2ccc(NC(=O)c3cccs3)cc2Cl)no1 — half-life (chemical stability; buffer; 5 µM, pH 10.0, 37 °C): 0.768 ± 0.138 h
Nc1nc2c(ncn2COCCOC(=O)[C@@H](N)CS)c(=O)[nH]1 — half-life (DPBS; pH 7.4, 34 °C, chemical hydrolysis): 3.1 ± 0.3 h
NC(=O)c1cnc2[nH]ccc2c1NC1C2CC3CC1CC(OS(=O)(=O)O)(C3)C2 (stereo not shown) — half-life (Japanese adults, mild hepatic impairment, plasma; oral, 150 mg single dose): 7.74 h
O=C(Nc1ccc(-c2noc(C3CC3)n2)c(Cl)c1)c1cccs1 — half-life (chemical stability; buffer; 5 µM, pH 10.0, 37 °C): 0.877 ± 0.207 h
C[N+]1(CC(=O)OC2CCCCCCCCCCC2)CCCCC1 — half-life (mouse plasma; 37 °C): 1 h
COc1cc(C)c(Cc2ccc(O)cc2)cc1[C@@H]1S[C@H](CO)[C@@H](O)[C@H](O)[C@H]1O — half-life (Japanese T2DM patients, plasma; 2.5 mg luseogliflozin, day 7, once daily): 16.6 ± 2.42 h
[2H]C1([2H])CC[C@@H](C[C@@H](C#N)NC(=O)[C@@H]2[C@@H]3[C@H](CN2C(=O)[C@@H](NC(=O)C(F)F)C(C)(C)C)C3(C)C)C(=O)N1 — half-life (human liver microsomes; microsomes 0.5 mg/mL): 1.36 h
O=C(CCc1ccc(Br)cc1)N[C@H]1CCOC1=O — half-life (TRIS buffer with 0.5% DMSO; 50 µM, pH 7, 37 °C): 8.5 to 11 h
CCOC(=O)CCC(=O)Oc1ccc(/C=C/C(=O)/C=C(O)/C=C/c2ccc(OC(=O)CCC(=O)OCC)c(OC)c2)cc1OC — half-life (human plasma; 1.5 µM, 37 °C): 0.0808 ± 0.0158 h
CC(=O)O[C@@H]1CC[C@@]2(C)C(CC[C@]3(C)C2C(=O)C=C2C4[C@@H](C)[C@H](C)CC[C@]4(C)CC[C@]23C)[C@@]1(C)C(=O)N/N=C1/C(=O)Nc2ccccc21 (stereo partly shown) — half-life (HPLC; 0.1 M HCl; 75 µM, pH 1.4, 37 °C, simulated gastric fluid): 5.74 h
COC(=O)c1ccc(/C=N/NS(=O)(=O)c2ccc(OC)c(OC)c2)cc1 — half-life (liver microsomes, male Wistar rat; 10 µM, pH 7.4, 37 °C, without NADPH): 0.095 h
CC[C@H](C)[C@H](NC(=O)CNC(=O)CNC(=O)c1ccc2c(c1)C(=O)OC21c2ccc(O)cc2Oc2cc(O)ccc21)C(=O)N[C@@H](Cc1ccc(O)cc1)C(=O)N[C@H](C)C(=O)N[C@@H](C)C(=O)N1CCC[C@H]1C(=O)N(C)[C@@H](Cc1ccccc1)C(=O)N[C@@H](CCCCN)C(=O)N[C@@H](CCCCN)C(=O)N[C@@H](CCCCN)C(=O)N[C@@H](C)C(N)=O — half-life (CE-LIF; Baf/BCR-ABL cell cytosolic lysate; 1 µM, pH 7.4, 37 °C): 0.298 h
CCC(CC)[C@H](NC(C)=O)[C@@H]1[C@H](O)[C@@H](C(=O)N[C@H](C(=O)O)[C@@H](C)CC)C[C@H]1NC(=N)N — half-life (phosphate buffer; pH 6.8, 37 °C, chemical stability): 33.1 ± 0.5 h
Nc1nc2c(ncn2COCCOC(=O)CCC(=O)OC[C@H](N)C(=O)O)c(=O)[nH]1 — half-life (DPBS; pH 7.4, 34 °C, chemical hydrolysis): 38 ± 12 h
O=C(CS(=O)(=O)Cc1ccco1)C12CC3CC(CC(C3)C1)C2 — half-life (metabolic stability; human liver microsomes): > 4 h
Cc1cc(C)cc(OCC(N)c2ccccc2)c1 (stereo not shown) — half-life (chemical stability, HPLC; pH 3, 37 °C): > 360 h
CCC(=O)N[C@@H](C)C(=O)OCC(=O)N[C@@H](C)C(=O)O — half-life (water; pH 2, 65 °C): 93.3 h
Cc1ccccc1-c1cc(N2CCNCC2)ncc1N(C)C(=O)C(C)(C)c1cc(C(F)(F)F)cc(C(F)(F)F)c1 — half-life (healthy volunteers, plasma; oral, dose not given): 73.3 to 82.9 h
C#CCOCCOCCOCCOCCn1cc(C(ONC(=O)/C=C/C(C)=C/C2(C)Oc3cc(N(C)C)ccc3C2=O)(c2ccccc2)c2ccccc2)nn1 (stereo not shown) — half-life (HPLC; aqueous buffer; pH 4.3): stable

Some of these lines once more:
Cc1ccccc1-c1cc(N2CCNCC2)ncc1N(C)C(=O)C(C)(C)c1cc(C(F)(F)F)cc(C(F)(F)F)c1 — half-life (healthy volunteers, plasma; oral, dose not given): 73.3 to 82.9 h
CCC(CC)O[C@@H]1C=C(C(=O)OC(OC(=O)[C@@H](N)C(C)C)C(C)C)C[C@H](NC(=N)N)[C@H]1NC(C)=O (single isomer, unassigned) — half-life (acetate buffer; pH 5.5, 37 °C): stable
CO[C@@H](C[C@H]1C(C)=CC[C@@H]2[C@]3(C)C[C@H](O[C@@H]4O[C@@H](C)[C@H](O)[C@@H](O)[C@H]4O)[C@@H](O)C(C)(C)[C@H]3CC[C@]21C)[C@H](N)C(=O)O — half-life (simulated gastric fluid with pepsin; 1 µM, pH 1.2, 37 °C): > 8 h
